Literature values, collected from citations in different studies.
Each numbered part shows a few of the values that one paper quotes.
UniProt P45481, sequence (whole entry, looked up): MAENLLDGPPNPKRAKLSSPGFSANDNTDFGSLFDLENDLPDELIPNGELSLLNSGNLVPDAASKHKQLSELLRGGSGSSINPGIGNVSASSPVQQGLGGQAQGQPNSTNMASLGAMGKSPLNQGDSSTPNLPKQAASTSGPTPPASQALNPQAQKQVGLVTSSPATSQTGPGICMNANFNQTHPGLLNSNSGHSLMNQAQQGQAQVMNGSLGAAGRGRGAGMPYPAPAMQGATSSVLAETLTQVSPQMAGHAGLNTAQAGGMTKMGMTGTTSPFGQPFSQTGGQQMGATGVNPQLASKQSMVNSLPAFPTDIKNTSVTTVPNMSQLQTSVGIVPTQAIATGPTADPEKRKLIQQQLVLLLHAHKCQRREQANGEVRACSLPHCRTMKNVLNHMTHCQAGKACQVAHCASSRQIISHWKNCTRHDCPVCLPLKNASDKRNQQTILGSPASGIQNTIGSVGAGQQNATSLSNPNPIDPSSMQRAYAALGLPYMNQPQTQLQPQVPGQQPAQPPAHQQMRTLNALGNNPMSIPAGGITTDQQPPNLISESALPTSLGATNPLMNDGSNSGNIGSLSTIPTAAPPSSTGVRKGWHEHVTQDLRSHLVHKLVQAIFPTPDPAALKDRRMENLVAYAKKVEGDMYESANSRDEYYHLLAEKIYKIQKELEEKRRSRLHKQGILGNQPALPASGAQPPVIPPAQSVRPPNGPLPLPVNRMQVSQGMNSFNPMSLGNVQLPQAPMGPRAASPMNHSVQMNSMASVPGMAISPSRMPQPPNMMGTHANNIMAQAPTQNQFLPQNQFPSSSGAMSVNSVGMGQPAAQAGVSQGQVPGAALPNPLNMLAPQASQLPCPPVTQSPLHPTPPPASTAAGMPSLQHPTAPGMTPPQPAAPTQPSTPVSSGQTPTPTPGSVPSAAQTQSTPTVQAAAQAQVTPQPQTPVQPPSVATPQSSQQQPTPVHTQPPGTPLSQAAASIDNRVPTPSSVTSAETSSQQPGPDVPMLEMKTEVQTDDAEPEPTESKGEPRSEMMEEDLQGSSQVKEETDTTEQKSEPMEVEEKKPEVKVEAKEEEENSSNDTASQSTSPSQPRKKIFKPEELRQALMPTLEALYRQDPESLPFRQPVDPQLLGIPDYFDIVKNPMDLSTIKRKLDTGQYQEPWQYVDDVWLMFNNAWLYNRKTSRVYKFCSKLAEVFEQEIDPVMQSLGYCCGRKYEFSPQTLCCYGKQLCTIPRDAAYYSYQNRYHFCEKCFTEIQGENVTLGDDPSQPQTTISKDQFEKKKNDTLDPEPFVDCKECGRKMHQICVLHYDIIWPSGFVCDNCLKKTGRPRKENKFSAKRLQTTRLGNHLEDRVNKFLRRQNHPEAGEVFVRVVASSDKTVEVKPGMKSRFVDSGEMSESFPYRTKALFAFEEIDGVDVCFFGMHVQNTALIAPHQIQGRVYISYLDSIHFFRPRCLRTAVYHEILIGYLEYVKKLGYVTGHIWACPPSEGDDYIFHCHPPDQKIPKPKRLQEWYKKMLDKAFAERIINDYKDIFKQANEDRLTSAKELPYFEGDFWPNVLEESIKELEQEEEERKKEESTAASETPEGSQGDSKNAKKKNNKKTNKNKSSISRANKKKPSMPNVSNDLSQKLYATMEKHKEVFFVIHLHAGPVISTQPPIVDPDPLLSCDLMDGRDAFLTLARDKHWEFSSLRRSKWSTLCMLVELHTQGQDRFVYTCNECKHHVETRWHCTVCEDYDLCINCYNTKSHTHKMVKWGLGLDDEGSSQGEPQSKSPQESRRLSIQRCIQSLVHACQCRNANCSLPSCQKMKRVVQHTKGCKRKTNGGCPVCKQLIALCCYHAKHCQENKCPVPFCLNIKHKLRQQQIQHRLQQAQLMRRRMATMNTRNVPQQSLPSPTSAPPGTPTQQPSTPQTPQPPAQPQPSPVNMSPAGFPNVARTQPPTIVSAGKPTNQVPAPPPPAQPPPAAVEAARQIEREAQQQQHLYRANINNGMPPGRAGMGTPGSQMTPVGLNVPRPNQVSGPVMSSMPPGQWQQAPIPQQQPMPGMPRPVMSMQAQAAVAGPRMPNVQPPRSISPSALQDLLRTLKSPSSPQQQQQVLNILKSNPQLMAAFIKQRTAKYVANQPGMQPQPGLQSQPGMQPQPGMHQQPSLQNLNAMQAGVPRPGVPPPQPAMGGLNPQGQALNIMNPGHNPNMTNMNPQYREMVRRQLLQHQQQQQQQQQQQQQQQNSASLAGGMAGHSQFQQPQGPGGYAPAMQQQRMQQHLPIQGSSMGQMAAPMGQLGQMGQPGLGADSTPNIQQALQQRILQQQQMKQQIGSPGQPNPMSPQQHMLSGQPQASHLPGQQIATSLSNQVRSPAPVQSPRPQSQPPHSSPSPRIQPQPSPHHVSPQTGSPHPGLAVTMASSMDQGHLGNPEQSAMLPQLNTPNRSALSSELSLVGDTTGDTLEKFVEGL

Sample 1
Method: isocratic RP-HPLC, C18 column
Molecule type: peptide
Matrix: water/acetonitrile, 0.1% TFA
Temperature: 25 °C
`LLLLDFR`: “retention coefficient S” 14.7.
For `LLSAAHFR`, “retention coefficient S” read 19.9.
For `LAGGSASSAHAAFR`, “retention coefficient S” read 22.2.

Sample 2
Organism: Escherichia coli
Molecule type: peptide
Strain: DH5α
For `GINLKRKGNIMKKVKNIFHKIANADPMIWGYVMLSESK`, the MIC was 5 µM.
`IFFRRNKKMAVKVAINGFGRIGRLAFRQMFGRYIAKINPDNKKFKTMPSG` has an MIC of 11 µM.
`KQKTLKKVWKLSEKVLIFASAFAKKAGAAEATLVL` has an MIC of 2 µM.
For `RGTCYNRVGLIIRNFSKLKGKKV`, the MIC was 13 µM.
The MIC of `AMTSRKRKFVWYVLSSSLKWLIKKAKKIGVQVCGFE` is reported as 4 µM.
The MIC of `SVIWRKLFFIFIKRSGNWIKKVEKRQNLL` is reported as 1 µM.
For `AMTLRKRKFAWYVLSSSLKWLIKKAKKIGVQVCGFE`, the MIC was 3 µM.
`KKRKGHKMATHKRKKRLRKNRHKKK` has an MIC of 9 µM.

Further values, each from its own experiment
B1: CCL1; sequence looked up; chain KSMQVPFSRCCFSFAEQEIPLRAILCYRNTSSICSNEGLIFKLKRGKEACALDTVGWVQRHRKMLRHCPSKRK
The t1/2 of `dulaglutide` is reported as about 120 h (human; once weekly dosing).
Under “dose-normalised AUCτ at steady state”, `insulin icodec` is recorded as 12500 (nmol·h/L)/(U/kg) (White patients with type 1 diabetes, serum; dose not given, geometric mean).
`pegcetacoplan` gave an AUC(0-inf) of 30000 µg·h/mL (human; 360 mg single dose, arithmetic mean).
With `HIF1A CTAD C800V (Homo sapiens)` the Kd was 0.0074 µM (CBP TAZ1 domain (Mus musculus, UniProt P45481); fluorescence anisotropy).
For `B1 (CCL1)`, the EC50 was 0.109 µM (CCR8 F254A mutant; IP accumulation, agonist).

A few entries again (sample 2):
The MIC of `SVIWRKLFFIFIKRSGNWIKKVEKRQNLL` is reported as 1 µM.
